Assay results gathered from unrelated publications.
Every numbered part comes from another study and shows a few of its results, in no order.

Study 1 — method: RNA Bind-n-Seq; molecule type: RNA; sample: in vitro; concentration: 365 nM; baseline: no-protein control; reading: higher = stronger binding
Target: RNA binding protein fox-1 homolog 2, RRM domain, GST-SBP tag (RBFOX2, Homo sapiens, UniProt O43251-10, residues 100-194)
Notes: natural RNA segment, single round, ends assumed
Construct (chain): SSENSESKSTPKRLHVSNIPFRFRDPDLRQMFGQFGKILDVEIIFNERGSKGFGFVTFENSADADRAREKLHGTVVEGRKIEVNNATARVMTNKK
Oligonucleotide | RBNS enrichment (R)
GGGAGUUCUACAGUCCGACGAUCCUAUUAACUCAUUGAAUGUGUUUCCUUUGUCUUGUGUUAAUAAAUAUUGAUGCCUGAUUCUGUUUAAUCCUUCACACAUUGGGUGGAGGCUAGGGAAUUGAUAGAUUUUAUGGAAUUCUCGGGUGCCAA | 0.641
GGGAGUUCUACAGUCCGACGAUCGGCCUGCUGAUAAGAUACCUGCUGGUGAGCCCUGAUGUGGGACAUACGUGCAGAUAGGGGGCAGGGUUCGUUUACAGUGCCAGCAAGCAUGGAGUUGUCAGUAUUGGAGUUGGAAUUCUCGGGUGCCAA | 27.3
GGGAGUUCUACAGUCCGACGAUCCAUCAUGUUGGGCUCCUAGAUUGUACUGGGGUUGCCCAUAAAUCAAACCCCAUACUCUUAGAAUUCAUUAUAUUAUGGUGAUAUCCGAACCUAGUGAAUGGUAUGCUUGGUGGAAUUCUCGGGUGCCAA | 0.439
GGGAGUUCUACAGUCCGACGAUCACCCUUCCCUUUUAAAGUCCCUGAAUUUUACAGUCUGCUUUCAAAUGAAAUAUUGUACUUUAAUUCAUUCAGGAAGCAAAUUGAGUGCCUAUAAGUGAGACACUGUGCUGUGGAAUUCUCGGGUGCCAA | 0.27
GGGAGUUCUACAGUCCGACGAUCACUGCAAAUUUAAGUCAGCAUUUUUAGGACAGAGUGCUUGGAGAAGUGCUUUUUUGCAGUCUCCUUUGUUGCUGAUUUCAUGUGUCCGAUUCCUUCUGUAUGUCAUUCUUUGGAAUUCUCGGGUGCCAA | 0.478
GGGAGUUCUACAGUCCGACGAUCUGGAAAAGCUUGGAAGACCUUGGUCUCACCAUUUGUCUACAUUUGUGUGACCAUAAAAUGCUGGGAGCAUUGAGUUUUGUAAUGAUUUAAUGGGUGAGGAUUGCUUUCUCUGGAAUUCUCGGGUGCCAA | 0.469
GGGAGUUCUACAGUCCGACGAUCAAAAACAAAAUGGAAAAAGUCACAAAAAAGUUUGUAUAAAGACGUAUUUUUGUACUACAUGGGGACUCUUCCUGCAUGUCAGCAAUAAAACUUCCUGAUCUGGAGCCACCUGGAAUUCUCGGGUGCCAA | 0.566
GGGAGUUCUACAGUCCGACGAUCUCCCUGUCCUGUAAAUAUCCCUCCCCUCUCCAGUCCACCCUCAUCUCCCACCAAGAUCAGCCACCUCAGGCAUGGGGAGUAAUGAGACCAGAGCGCCUCUCUGGCACCACUGGAAUUCUCGGGUGCCAA | 1.06
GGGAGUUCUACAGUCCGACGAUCGAGCCUGGUGCGCCUAGGCCCUCGGACCCCAUCCCCACCCCAGCCGGGCCCGCUCAGGAUGCCCUGGCCCAGGCUUGGGGCUGCUGGGGUUGGAAUGUGGAACUGCAGCCUGGAAUUCUCGGGUGCCAA | 0.31
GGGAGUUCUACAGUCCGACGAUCCAGAUUUCAGCCCCACCCAGAGUGUGCUCUAGAUGUUGUUGAUUUGAAUGGUUUUCCCAGUUCCCACUCCACAUGGGGAAGUUGAAUGAAUGCACACCUGCUGCUCACUUUGGAAUUCUCGGGUGCCAA | 0.627
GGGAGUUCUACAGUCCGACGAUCUUGCAGCAACCUUUCUCUCCUGUCUACCCUUUUAGUUUACUGUAUGCCAUGGUUUUGUUUUGGUUACAUUGAAAGAAAGUUAAUUUGGAAAAUUUGGGAGAAAUCUAAUCUGGAAUUCUCGGGUGCCAA | 0.659
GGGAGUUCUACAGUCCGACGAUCGCCAGUGACUGAGGAUCCCCUCCAGUCAUGGUUCUGUAUAUUCUUUGAGACAGGUGUUUUCAUCUUCUCUCAGCUCAGUGCUGUUUUGUACAGUCUCUGUGGCUUGGUUGUGGAAUUCUCGGGUGCCAA | 0.329

Study 2 — method: EMSA with sequencing; molecule type: double-stranded DNA, one strand shown; sample: in vitro; concentration: 10 and 20 nM; baseline: negative control set to 0; reading: higher = stronger binding
Target: Hepatocyte nuclear factor 3-alpha (Foxa1, Mus musculus, UniProt P35582, residues 1-468, full length assumed)
Notes: whole designed probe, mean of two concentrations, ends assumed
Residues (chain): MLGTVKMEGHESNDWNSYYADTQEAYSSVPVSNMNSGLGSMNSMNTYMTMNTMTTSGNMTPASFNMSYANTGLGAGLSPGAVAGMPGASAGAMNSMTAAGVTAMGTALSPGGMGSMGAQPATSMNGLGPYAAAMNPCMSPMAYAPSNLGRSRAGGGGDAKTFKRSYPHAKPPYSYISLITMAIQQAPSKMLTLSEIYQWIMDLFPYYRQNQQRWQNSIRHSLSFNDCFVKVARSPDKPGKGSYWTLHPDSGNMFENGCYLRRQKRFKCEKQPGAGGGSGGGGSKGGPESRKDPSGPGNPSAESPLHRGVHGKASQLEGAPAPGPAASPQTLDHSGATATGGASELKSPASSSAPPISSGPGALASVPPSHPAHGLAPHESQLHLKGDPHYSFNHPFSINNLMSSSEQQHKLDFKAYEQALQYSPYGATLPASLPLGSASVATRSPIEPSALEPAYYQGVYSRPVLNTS
Oligonucleotide | normalised bound fraction
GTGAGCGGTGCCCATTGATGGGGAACATCCACGAACCTGGCCCTGTCTGGTAACCACAGTGAACCATCGCAAGATACAGCACTATGTGCCCAGTTGGGCTGGTAATGACTCACAAATGTGTCATCTCTGGCACATCCTCAGGGACACGGAAGTGTACTTGTTTTTGGAGAGGGACTAGACCTTCATCCTTGAGGTGAAGAAGATTTTCTCTCCAGGGTGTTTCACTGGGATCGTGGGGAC | -0.0702 ratio
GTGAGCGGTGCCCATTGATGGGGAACAGTCCAAAAGACACAATAGGCACTGAGCAGAGGATGATGGCAATGGTAGAATGAATCATGAGGTTCATAACCAGGAGACTTAAAGCAAAAAAAATAAACAACCAAACAGCAATGGGTGAAGAGTTCCCTGCAAAGGCTAATCTATAAATAAGCACTGTGATCTTTCCTGGTCTGATAACAAATCTCATTATGATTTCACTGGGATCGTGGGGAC | 0.165 ratio
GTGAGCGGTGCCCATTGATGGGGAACATCTTCCCCCTCTTCCTTGCCCCACCAGCTCACCTTCCCGGGTTATTTGCAGATAGGAAAATAAATAAAGCCGGCATTCGTTAACCCTCTTCACGCGCATACTGCTGTTTGCTCTGGATCTAACATGGTCCTTTGGCGACGCCAGGCTCCGGGAGAGCAAAGCACCGTGTCAGGGCCATGATCCGGGGTGGCCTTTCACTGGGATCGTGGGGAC | 0.37 ratio
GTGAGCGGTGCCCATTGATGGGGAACACTACCATAGTTCCTATATACATATATGCCTCTTTCCCAATGCAAGTATGATATACTTTTATTTTGTTATTTGGTTTTCTATCTTTGATTTACATGTTTACACTGACATTTTTTAAGACTCTATTTGCTTAAGGTACAAAAAAATGTATTATTTACTGCAATCTCAACTATTAAAGCTAAAGCATTTCGAAAGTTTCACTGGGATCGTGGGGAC | 0.413 ratio
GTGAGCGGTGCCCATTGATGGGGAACACTAAATACAAACGATTAGAGCGTCACGGAAGATTAGCAAACATTCTACTGCAAACAGCACTCCCAGATCCACAGAAACCAGGTCACTACTATGTAATCTTTTTGCACCACTTCGTAAACAGATAAAAATATCAAGTCAGTTTGGTGTAAACAGACCAACAGCAGGAGAAGCCAGCATCCTTCTTAGATGGGATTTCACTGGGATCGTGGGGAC | 0.271 ratio
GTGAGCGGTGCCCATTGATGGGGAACCTAAAGATGTTTTTTTCTTTTTAAATAAAGTAGATGTGGAGTTTTATCAAATTTTTTTCTGCACCTATTGATGGTTGTAATTTTTTTCAATAAGTAATCTTGGTAAGCTAATTGATTTTCTTGTGTAAAACCATCTTTAACATTCCTGAGGTAAACACTACTGGATTTTTTTGCTAATATTTTGCTAATGGTCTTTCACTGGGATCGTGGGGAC | 0.0444 ratio
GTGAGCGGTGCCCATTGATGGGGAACTTTTCTGCCGGCAGTGCTTCTAGCAGTTGGGAGAATAAACCCCTCATTCCTGAGGGGAGCCTTGGTGGCCCCTCGCAGTGTTTACCATGTTAAGTAATCTTGGTAGGGTTGCTGAAGATTAGAGACGCCACAAAGAGGAGTGGGTTTGGGGAAGGCGATGAGCTCCATTTTGCACATAGTGAGTGTGAGGTGTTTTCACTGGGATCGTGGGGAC | 0.113 ratio

Study 3 — method: RNA Bind-n-Seq; molecule type: RNA; sample: in vitro; concentration: not given; baseline: input RNA pool; reading: higher = stronger binding
Target: RING finger protein unkempt homolog, zinc fingers 1-6, GST-SBP tag (UNK, Homo sapiens, UniProt Q9C0B0, residues 30-357)
Chain of UniProt Q9C0B0 (30-357, looked up): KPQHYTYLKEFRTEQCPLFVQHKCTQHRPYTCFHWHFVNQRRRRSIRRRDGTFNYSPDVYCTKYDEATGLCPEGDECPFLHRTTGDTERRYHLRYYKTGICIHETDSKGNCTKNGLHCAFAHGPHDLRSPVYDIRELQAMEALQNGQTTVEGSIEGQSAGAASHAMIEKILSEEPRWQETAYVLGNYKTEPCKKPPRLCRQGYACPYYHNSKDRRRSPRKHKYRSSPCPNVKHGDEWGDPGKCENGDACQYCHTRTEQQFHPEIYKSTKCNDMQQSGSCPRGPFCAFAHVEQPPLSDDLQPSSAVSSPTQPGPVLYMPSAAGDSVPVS
Notes: RNA with constant flanks, human and mouse sites, ends assumed
Oligonucleotide | bound/input enrichment
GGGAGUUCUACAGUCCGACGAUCUGGGAGAACUUGUUGAAAAGCGCUGCACAUUGCUCCAAAAGGAAAAGAAAAAACAGGAAAGAAAAUGAUUCCAAGGAAAAAUAUGCAAGCCUGUUUCAUUUAUUUGUACCCUAAGCAGCACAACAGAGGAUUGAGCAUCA | 0.172 ratio
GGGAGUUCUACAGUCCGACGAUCGGCUCCCAUUGUCUCCGCAGAUGCCUCCUGGUCCUGCUACGGUGCUGGGGUUGUUCAGUUUUAGGGGACACGCUCCUAUUCUUUUCUUCGAGACGUCCCGCGGCCGAGAACGGGGUUCUACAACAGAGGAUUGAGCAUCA | 0.119 ratio
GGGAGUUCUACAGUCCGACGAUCUUUUAUGGCAUGUAAUGGUGUUUGGUAAUAUUUUAAUGUAGAAUUUGAUUAUUUCAGCAAUAGUAAUUUUGAGAUAUUCUUUGAAUGAAAAGUGUCUUCGUUUCUAUGAUACAGGUCAUUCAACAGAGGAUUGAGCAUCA | 4.08 ratio
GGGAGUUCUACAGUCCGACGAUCGGCUUUGAGCUUCCUCAGGGGCCUCUGGGAACAUCCUUCAAAGGAAAAUAUGGGUGUGUAGACUACUGGGUGAAGGCUUUUCUUGACCGCCCGAGCCAGCCAACUCAAGAGACAAAGAAACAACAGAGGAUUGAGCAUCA | 0.21 ratio
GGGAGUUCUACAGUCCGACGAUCGAUGGCCUGCAUUUAUCACCAAUGGGAAAUGAGUUUCUGUUCUUAAACCUCUGUCCACUGCUGGACAAGAAGGUCUCAUCUCUGCCGUGGCUGCUUCCUUACUGGAAGGAUGUGGAGGAACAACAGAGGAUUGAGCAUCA | 0.164 ratio
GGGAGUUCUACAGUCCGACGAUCGGAACAGAUUUGAAACUCUCCUACUUGAGUUCCAGAGCUGCAGGGUAUAAGUCAGUUCUCAAGAUCACCAUGACCCAGUCUAUUAUUCCAUUUAAUUUAAUGAAGGUUCAUCUUAUGGUACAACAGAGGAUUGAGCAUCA | 0.455 ratio
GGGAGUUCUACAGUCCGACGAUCCUGAUUGUGACAUUUGUGCUGUUGCUUCCUGGACUAAACCAACAUGGGAUCAUUCUGAAGUACAUUGGAAUGGCCAAAAGGGAGAUAAACAAACUUCUCAAGCAAAAAGAAAAGAAAAAUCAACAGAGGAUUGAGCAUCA | 0.159 ratio
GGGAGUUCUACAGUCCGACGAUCCUUCUAAGUCGUGUCACUCUUCUAGAAACGGAGAUGCUGUUGUCCAAAAAGAGUGAAUCUGUAGAGCGUAAUGUGGCAAGUCAAGACUGUGAGUCAAUUAGUGAUGUGGACUUUGUACCCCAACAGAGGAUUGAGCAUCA | 1.16 ratio
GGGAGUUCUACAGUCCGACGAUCGCCUUUGAAGUGGAGCAUGAAUGCCUAGGCAAAUGUCAGGGUUUAUUUGCACCCCAGUUUUAUGUUCAGCCUGAUGCUCCGUGUAUUCAAUGUCUGGAGUGUUGUGGAAUGUUUGCACCCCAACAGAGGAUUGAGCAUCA | 0.21 ratio
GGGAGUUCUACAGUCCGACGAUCGUCUUCCAUCAUAAAUUUAACUUCAUUAGAUACCUGAGAAUUAAUAUUGAAAAUACACCAUAUGAAUUUAGUGAAUGUGGGAAAGCUUUCAUCCUUAUUACAUCUUAUUUGAUACUAGGGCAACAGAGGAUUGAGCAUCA | 5.86 ratio
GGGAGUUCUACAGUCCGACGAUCAUCGCUGUUGGAUCCAUCUCCUUCCUUCUGGGAGUUGUACUGCUAGUAAUUAAUCAUAAAUAUAGAAACAGUAGUAAUACAGCUGACAUUACCAUUUAAUUUUAUAUUAUGAAAGCAAAUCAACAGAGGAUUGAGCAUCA | 0.333 ratio

Study 4 — method: universal PBM; molecule type: double-stranded DNA, one strand shown; sample: in vitro; concentration: not given; reading: higher = stronger binding
Target: Sal-like protein 4, full length isoform B (SALL4, Homo sapiens, UniProt Q9UJQ4-2, residues 1-616)
Notes: 8-mer, flanks averaged, mean of replicates
Oligonucleotide | E-score
CCCGAGCA | -0.104
CTTAGATA | 0.225
ACTCTGAA | 0.0848
CATAACCG | 0.129
AGCGTGGG | -0.286
TGGAGGAA | -0.0318
CTTGTCTA | 0.134
CGGAATCC | -0.181
AGACGTCA | 0.00515
AGGACCAC | -0.234
CAGCGCTA | -0.113
CTTTCCTC | -0.0245
ATGTGTCC | -0.053
CTCACCGC | -0.273
AGTTGGAA | -0.0551
AATTAACA | 0.297
TGCTAGCA | -0.00046
CTAAGGGA | -0.105
AGAACAGG | -0.0887
GCCATTTA | 0.0725

A few entries again (study 4):
Oligonucleotide | E-score
TGGAGGAA | -0.0318
CTTGTCTA | 0.134
CGGAATCC | -0.181
AGACGTCA | 0.00515
AGGACCAC | -0.234
CAGCGCTA | -0.113
